{"data": "Results from different studies", "note": "Compare with care: the assays were run in different laboratories. ± marks the error that the study gave."}
{"SMILES": "Oc1ccc(/C=C/c2cc(O)cc(O)c2)cc1", "target": "human HDAC class I/II", "test": "enzyme activity, inhibitor, HDAC-Glo I/II", "system": "HCT-116", "IC50": "2660 nM"}
{"SMILES": "CCCC/C=N/N(Cc1ccc(Cl)nc1)/C(N)=N/[N+](=O)[O-]", "target": "mAb-19F2 (BALB/c mouse monoclonal antibody)", "test": "antibody binding, indirect competitive ELISA", "IC50": "> 1 µg/mL"}
{"SMILES": "NC[C@@H]1O[C@H](O[C@H]2[C@@H](O)[C@H](O[C@@H]3[C@@H](O)[C@H](N)C[C@H](N)[C@H]3O[C@H]3O[C@@H]4CO[C@@H](CCc5ccccc5)O[C@H]4[C@H](O)[C@H]3N)O[C@@H]2CO)[C@H](N)[C@@H](O)[C@@H]1O", "target": "Mycobacterium smegmatis ribosome wild type", "test": "translation, cell-free luciferase synthesis", "IC50": "0.1 ± 0.03 µg/mL"}
{"SMILES": "C/C=C1\\NC(=O)[C@@H](NC(=O)[C@@H](NC(=O)[C@H](C)NC(=O)C/C(C)=C/Cl)C(C)C)[C@@H](C)OC(=O)[C@H](C(C)C)NC(=O)[C@H](Cc2ccc(O)cc2)N(C)C(=O)[C@H](Cc2ccccc2)N2C(=O)[C@H](CC[C@H]2O)NC1=O", "target": "bovine trypsin", "test": "enzyme activity, inhibitor", "conditions": "30 min, pH 7.4, 22 °C, together with: Z-Leu-Arg-Arg-AMC", "IC50": "> 20000 nM"}
{"SMILES": "NCC1OC(OC2C(CO)OC(OC3C(O)C(N)CC(N)C3OC3OC(CO)C(OCCCc4ccccc4)C(O)C3N)C2O)C(N)C(O)C1O (stereo not shown)", "target": "Mycobacterium smegmatis ribosome A1408G", "test": "translation, cell-free luciferase synthesis", "IC50": "14.5 ± 5.77 µg/mL"}
{"SMILES": "O=[N+]([O-])c1ccc(Cl)c([N+](=O)[O-])c1", "target": "cysteine peptide Ac-RFAACAA-COOH", "test": "peptide depletion, DPRA RapidFire-MS/MS", "conditions": "24 h, pH 7.5, room temperature, together with: 5.0 µM cysteine peptide", "IC50": "319000 nM"}
{"SMILES": "CC(C)[C@H](NC(=O)[C@@H]1OC(=O)[C@H]1C1CCC1)C(=O)N[C@H](C(=O)OCc1ccccc1)C(C)C", "target": "human proteasome β2 subunit", "IC50": "4070 ± 461 nM"}
{"SMILES": "O=C(NC(=O)c1ccccc1Cl)Nc1ccc(OC(F)(F)F)cc1", "target": "mAb-19F2 (BALB/c mouse monoclonal antibody)", "test": "antibody binding, indirect competitive ELISA", "IC50": "> 1 µg/mL"}
{"SMILES": "CC[C@H](C)[C@@H](C(=O)O[C@@H](CC(C)C)C(=O)N[C@@H](CC(C)C)C(=O)N[C@@H](C)/C=C/C(=O)N1C(=O)C=C(OC)[C@@H]1C)N(C)C", "target": "falcipain 2/2'", "test": "enzyme activity, competitive activity-based probe", "system": "Plasmodium falciparum", "conditions": "1 h, together with: 1 µM Cy5-DCG-04", "IC50": "8.5 ± 1.3 nM"}
{"SMILES": "Cc1c2ccncc2c(C)c2c1[nH]c1ccccc12", "target": "NQO2", "test": "protection from toxicity", "system": "MDA-MB-468", "conditions": "3 h, together with: CB1954 100 µM plus NRH 100 µM", "IC50": "54 ± 53 nM"}
{"SMILES": "Cc1cc(Nc2nc(N[C@@H](C)c3ncc(F)cn3)ncc2Cl)n[nH]1", "target": "Stat5b, human", "test": "reporter gene, inhibitor, luciferase reporter", "system": "PC-3", "conditions": "1 h pretreatment, together with: human prolactin 10 nM, 16 h", "IC50": "250 nM"}
{"SMILES": "O=C1C=CC(=O)C=C1", "target": "cysteine peptide Ac-RFAACAA-COOH", "test": "peptide depletion, DPRA RapidFire-MS/MS", "conditions": "24 h, pH 7.5, room temperature, together with: 5.0 µM cysteine peptide", "IC50": "4840 nM"}
{"SMILES": "O=C(CCCCCCC(=O)Nc1ccccc1)NO", "target": "HDAC (HeLa nuclear extract)", "test": "enzyme activity, inhibitor", "IC50": "146 ± 7.6 nM"}
{"SMILES": "CCc1c(C(=O)NCCc2ccc(N3CCCCC3)cc2)[nH]c2ccc(Cl)cc12", "target": "cannabinoid receptor 1", "test": "ERK phosphorylation, negative allosteric modulator", "conditions": "mean over cells and agonists", "IC50": "213 nM"}
{"SMILES": "CC[C@H](C)[C@@H]1C(=O)O[C@H]1C(=O)N[C@@H](COCc1ccccc1)C(=O)N[C@H](C(=O)OCc1ccccc1)C(C)C", "target": "human proteasome β2 subunit", "IC50": "759 ± 20 nM"}
{"SMILES": "Cc1cc2c(C(C)C)c(O)c(O)c(C=O)c2c(O)c1-c1c(C)cc2c(C(C)C)c(O)c(O)c(C=O)c2c1O", "target": "class IIa HDAC", "test": "enzyme activity", "system": "bovine heart lysate", "IC50": "13000 nM"}
{"SMILES": "CC[C@H](C)[C@@H]1C(=O)O[C@H]1C(=O)N[C@H](C(=O)N[C@@H](CC(C)C)C(=O)OCc1ccccc1)C(C)C", "target": "human proteasome β2 subunit", "IC50": "1510 ± 160 nM"}
{"SMILES": "Cn1sccc1=O", "target": "cysteine peptide Ac-RFAACAA-COOH", "test": "peptide depletion, DPRA RapidFire-MS/MS", "conditions": "24 h, pH 7.5, room temperature, together with: 5.0 µM cysteine peptide", "IC50": "3630 nM"}
{"SMILES": "CC[C@H](C)[C@@H]1C(=O)O[C@H]1C(=O)N[C@H](C(=O)N[C@H](C(=O)OCc1ccccc1)C(C)C)C(C)C", "target": "human proteasome β2 subunit", "IC50": "1430 ± 89 nM"}
{"SMILES": "NC[C@@H]1O[C@H](O[C@H]2[C@@H](O)[C@H](O[C@@H]3[C@@H](O)[C@H](N)C[C@H](N)[C@H]3O[C@H]3O[C@H](CO)[C@@H](O)[C@H](O)[C@H]3N)O[C@@H]2CO)[C@H](N)[C@@H](O)[C@@H]1O", "target": "Mycobacterium smegmatis ribosome A1408G", "test": "translation, cell-free luciferase synthesis", "IC50": "0.26 ± 0.04 µg/mL"}
{"SMILES": "CC(C)(C)N(NC(=O)c1ccccc1)C(=O)c1ccccc1", "target": "mAb-19F2 (BALB/c mouse monoclonal antibody)", "test": "antibody binding, indirect competitive ELISA", "IC50": "> 1 µg/mL"}
{"SMILES": "CCN[C@@H]1C[C@H](N)[C@@H](O[C@H]2OC(CN)=CC[C@H]2N)[C@H](O)[C@H]1O[C@H]1OC[C@](C)(O)[C@H](NC)[C@H]1O", "target": "Mycobacterium smegmatis 70S ribosome", "test": "phenylalanine incorporation, inhibitor, cell-free translation", "system": "hybrid ribosomes 0.25 µM", "conditions": "60 min, 37 °C, together with: (UUU)12 mRNA", "IC50": "1100 nM"}
{"SMILES": "C[C@H](NC(=O)C1CCNCC1)C(=O)Nc1ccc2c(c1)C(=O)c1ccc(NC(=O)[C@H](C)NC(=O)C3CCNCC3)cc1C2=O", "target": "HIV-1 nucleocapsid protein", "test": "cTAR DNA melting, inhibitor", "IC50": "24900 ± 2200 nM"}
{"SMILES": "COC[C@@H](NC(C)=O)C(=O)NCc1ccc(-c2cccc(F)c2)cc1", "target": "voltage-gated sodium channel", "test": "peak sodium current, inhibitor, whole-cell patch clamp", "system": "CAD", "conditions": "0 mV from -80 mV holding", "IC50": "2200 ± 900 nM"}
{"SMILES": "O=C(Nc1cccnn1)N1CCN([C@@H]2CCOc3cc(C(F)(F)F)ccc32)CC1", "target": "sigma receptor, non-selective", "test": "binding", "IC50": "14000 nM"}
{"SMILES": "Cc1cc(O)cc2c1O[C@](C)(CCC[C@H](C)CCC[C@H](C)CCCC(C)C)CC2", "target": "COX-1 (rat)", "test": "thromboxane B2 formation", "system": "washed rat platelets", "conditions": "25 min pretreatment, together with: collagen 20 µg/mL", "IC50": "~25000 nM"}
{"SMILES": "CC[C@H](C)[C@@H]1C(=O)O[C@H]1C(=O)N[C@H](C(=O)N[C@H](C(=O)OCc1ccccc1)C(C)C)C(C)(C)C", "target": "human proteasome β2 subunit", "IC50": "5050 ± 688 nM"}
{"SMILES": "COc1ccc(C=O)cc1OC", "target": "anti-eugenol monoclonal antibody mouse", "test": "antibody binding, indirect competitive ELISA", "conditions": "antibody 0.25 µg/mL, together with: coating antigen Eug-222-OVA 0.5 µg/mL", "IC50": "> 10 µg/mL"}
{"note": "Some of these lines once more:"}
{"SMILES": "O=C(CCCCCCC(=O)Nc1ccccc1)NO", "target": "HDAC (HeLa nuclear extract)", "test": "enzyme activity, inhibitor", "IC50": "146 ± 7.6 nM"}
{"SMILES": "C/C=C1\\NC(=O)[C@@H](NC(=O)[C@@H](NC(=O)[C@H](C)NC(=O)C/C(C)=C/Cl)C(C)C)[C@@H](C)OC(=O)[C@H](C(C)C)NC(=O)[C@H](Cc2ccc(O)cc2)N(C)C(=O)[C@H](Cc2ccccc2)N2C(=O)[C@H](CC[C@H]2O)NC1=O", "target": "bovine trypsin", "test": "enzyme activity, inhibitor", "conditions": "30 min, pH 7.4, 22 °C, together with: Z-Leu-Arg-Arg-AMC", "IC50": "> 20000 nM"}
{"SMILES": "NC[C@@H]1O[C@H](O[C@H]2[C@@H](O)[C@H](O[C@@H]3[C@@H](O)[C@H](N)C[C@H](N)[C@H]3O[C@H]3O[C@@H]4CO[C@@H](CCc5ccccc5)O[C@H]4[C@H](O)[C@H]3N)O[C@@H]2CO)[C@H](N)[C@@H](O)[C@@H]1O", "target": "Mycobacterium smegmatis ribosome wild type", "test": "translation, cell-free luciferase synthesis", "IC50": "0.1 ± 0.03 µg/mL"}
{"SMILES": "O=[N+]([O-])c1ccc(Cl)c([N+](=O)[O-])c1", "target": "cysteine peptide Ac-RFAACAA-COOH", "test": "peptide depletion, DPRA RapidFire-MS/MS", "conditions": "24 h, pH 7.5, room temperature, together with: 5.0 µM cysteine peptide", "IC50": "319000 nM"}
